Assay results pooled from the literature.
Values joined by “and” are separate records of one study, mostly repeats; a detail may differ. ± marks the error that the study gave.

SMILES	target or system	test	test system	conditions	scale	quantity	value
CN(C/C=C/C#CC(C)(C)C)Cc1cccc2ccccc12		mitochondrial swelling	BALB/cByJ female mouse liver mitochondria	30 min, with: succinate + rotenone	baseline: CaCl2 maximal swelling	EC20	20.6 µM
CCCC[C@@H]1NC(=O)[C@@H](NC(=O)[C@H](CCC(=O)O)NC(=O)CNC(=O)CN2CCN(CC(=O)O)CCN(CC(=O)O)CCN(CC(=O)O)CC2)CCCCNC(=O)C[C@@H](C(N)=O)NC(=O)[C@H](C(C)C)NC(=O)[C@@H]2CCCN2C(=O)[C@H](CCCNC(=N)N)NC(=O)CNC(=O)[C@H](Cc2c[nH]c3ccccc23)NC(=O)[C@H](CCCNC(=N)N)NC(=O)[C@@H](Cc2ccccc2)NC(=O)[C@H](Cc2c[nH]cn2)NC(=O)[C@H](CCC(=O)O)NC1=O [indium-111 labelled]			C57 mice, B16F10 lung metastasis, urine	intravenous, 0.037 MBq, 4 h		urinary excretion	85.7 ± 1.66%
CC[C@H](C)C(=O)O[C@H]1C[C@@H](C)C=C2C=C[C@H](C)[C@H](CC[C@@H]3C[C@@H](O)CC(=O)O3)[C@H]21		cytochrome c release, ELISA	BALB/cByJ female mouse liver mitochondria	30 min	baseline: alamethicin maximal release	EC20	118 µM
CNCc1ccc(-c2[nH]c3cc(F)cc4c3c2CCNC4=O)cc1			human cancer patients, plasma	intravenous, 4 mg/m2, day 1, with: temozolomide 100		AUC(0-24 h)	205 ng·h/mL
CC1=C2C[C@H]3[C@@H](CC[C@@H]4C[C@H](NS(C)(=O)=O)CC[C@@]43C)[C@@H]2CC[C@@]2(C1)O[C@@H]1C[C@H](C)CN[C@H]1[C@H]2C			patients, plasma	oral, 40 mg single, day -7, cycle 1		Cmax	10.6 ng/mL
O=c1c(O)c(-c2ccc(O)c(O)c2)oc2cc(O)cc(O)c12		in situ brain perfusion	rat	no efflux inhibition		log intrinsic permeability	-5.15
CN1CCN(Cc2ccc(-c3cnc4[nH]cc(-c5cccc(F)c5)c4c3)cc2)CC1		metabolic stability	CD-1 mouse, liver microsomes	20 µM, pH 7.4		half-life	≥ 0.5 h
COc1cc2ncnc(Nc3ccc(F)c(Cl)c3)c2cc1NC(=O)/C=C/CN1CCCCC1		poziotinib M1 formation, inhibitor	rat liver microsomes	50 min, pH 7.4, 37 °C, with: poziotinib 100 µM		IC50	11.4 µM
Cc1cc(Nc2ncc(Cl)c(Nc3ccccc3S(=O)(=O)C(C)C)n2)c(OC(C)C)cc1C1CCNCC1			human, plasma	oral, 450 mg/day with food, steady state after dose 9		AUC(0-tau) total	23.6 µM·h and 20.3 µM·h and 23.3 µM·h and 19.7 µM·h and 16.1 µM·h and 21.3 µM·h
CC(=O)N[C@@H](Cc1ccccc1)C(=O)N[C@H]1CCCNC(=O)[C@H](CCCNC(=N)N)NC(=O)[C@H](Cc2c[nH]c3ccccc23)NC(=O)[C@@H](CC2CCCCC2)NC(=O)[C@@H]2CCCN2C1=O			C57BL/6J mice, brain	intravenous, 1 mg/kg		elimination half-life	1.93 h
Cn1c(-c2ccc(C(N)=O)cc2F)nnc1C(C)(C)Oc1c(F)cc(Cl)cc1F			young Japanese subjects, plasma	oral, 50 mg single dose, day 1		AUC(0-inf) range	5320 to 11600 ng·h/mL
CC[C@H](C)[C@H](NC(=O)[C@H](Cc1ccccc1)NC(=O)[C@H](CCC(=O)O)NC(=O)[C@H](CCCCNC(=O)COCCOCCNC(=O)COCCOCCNC(=O)CC[C@H](NC(=O)CCCCCCCCCCCCCCCCC(=O)O)C(=O)O)NC(=O)[C@H](C)NC(=O)[C@H](C)NC(=O)[C@H](CCC(N)=O)NC(=O)CNC(=O)[C@H](CCC(=O)O)NC(=O)[C@H](CC(C)C)NC(=O)[C@H](Cc1ccc(O)cc1)NC(=O)[C@H](CO)NC(=O)[C@H](CO)NC(=O)[C@@H](NC(=O)[C@H](CC(=O)O)NC(=O)[C@H](CO)NC(=O)[C@@H](NC(=O)[C@H](Cc1ccccc1)NC(=O)[C@@H](NC(=O)CNC(=O)[C@H](CCC(=O)O)NC(=O)C(C)(C)NC(=O)[C@@H](N)Cc1cnc[nH]1)[C@@H](C)O)[C@@H](C)O)C(C)C)C(=O)N[C@@H](C)C(=O)N[C@@H](Cc1c[nH]c2ccccc12)C(=O)N[C@@H](CC(C)C)C(=O)N[C@H](C(=O)N[C@@H](CCCNC(=N)N)C(=O)NCC(=O)N[C@@H](CCCNC(=N)N)C(=O)NCC(=O)O)C(C)C			healthy Japanese subjects, plasma	subcutaneous, steady state, once weekly	baseline: 1.0 mg over 0.5 mg	AUC(0-168 h) ratio	2.08
COc1cc(Nc2ncc3c(n2)-c2ccc(Cl)cc2C(c2c(F)cccc2OC)=NC3)ccc1C(=O)O			human, phase I	oral, 40 mg single dose		AUC(0-8h)	2620 ± 1570 ng·h/mL
CC(C)(c1ccc(O)cc1)c1ccc(O)cc1		GC-MS	exposure tank water with snails, charcoal-filtered tap water	250 ng/L nominal, 22 °C		half-life	3.76 h
CS(=O)(=O)n1cc2c(n1)CN([C@H]1CO[C@H](c3cc(F)ccc3F)[C@@H](N)C1)C2			healthy Japanese men, plasma	oral, 1 mg once weekly, day 1		Ctrough	3.68 nM
C[C@@]12C[C@@]3(O)O[C@@H](O1)[C@]1(COC(=O)c4ccccc4)[C@H]3C[C@@]12O[C@@H]1O[C@H](CO)[C@@H](O)[C@H](O)[C@H]1O			rat plasma QC samples	11250 ng/mL, 45 days, -80 °C, long-term stability, high QC		accuracy	100 % nominal
CO[C@H]1C[C@@H]2CC[C@@H](C)[C@@](O)(O2)C(=O)C(=O)N2CCCC[C@H]2C(=O)O[C@H]([C@H](C)C[C@@H]2CC[C@@H](O)[C@H](OC)C2)CC(=O)[C@H](C)/C=C(\C)[C@@H](O)[C@@H](OC)C(=O)[C@H](C)C[C@H](C)/C=C/C=C/C=C/1C			human, whole blood	oral, 60 mg, mean		AUC	3140 ng·h/mL
NCCCn1c2c(c3ccc(N)cc3c1=O)C(=O)c1ccccc1-2			Sprague-Dawley rat female, serum	oral, 40 mg/kg, 3 h		serum concentration	~830 ng/mL
O=C(NC[C@H]1CN(c2ccc(N3CCOCC3=O)cc2)C(=O)O1)c1ccc(Cl)s1			moderate renal impairment patients	oral, 10 mg, arithmetic mean		renal clearance	9.9 mL/min
CC1=C(COc2ccc(C#N)cc2)C(=O)c2ccccc2C1=O		cyclic voltammetry	DMSO	first wave, vs Ag/AgCl		cathodic peak potential	-0.62 V
COc1cc2c(cc1OC)CN(CCc1ccc(NC(=O)c3cc(OC)c(OC)cc3NC(=O)c3cnc4ccccc4c3)cc1)CC2			Wistar Unilever rat	intravenous, 7.5 mg/kg, 3 h		brain concentration	2570 ng/mL
CS(=O)(=O)Nc1ccc(C(=O)O[C@@H](Cc2c(Cl)c[n+]([O-])cc2Cl)c2ccc(OC(F)F)c(OCC3CC3)c2)cc1OCC1CC1			human, plasma	inhaled, 20 µg single dose, single-dose dry powder inhaler		tmax	4.8 min
Cc1ccc(C(=O)c2cc(O)c(O)c([N+](=O)[O-])c2)cc1		cytochrome c release, ELISA	BALB/cByJ female mouse liver mitochondria	30 min	baseline: alamethicin maximal release	EC20	> 400 µM

SMILES	target or system	test	test system	conditions	scale	quantity	value
[2H]C([2H])([2H])Oc1cc2c(cc1OC([2H])([2H])[2H])C1CC(=O)C(CC(C)C)CN1CC2 (stereo not drawn)		refers to: deuterated total (α+β)-HTBZ	healthy human volunteers, plasma	oral, 24 mg single dose, standard meal		dose-normalized AUC(0-inf)	22.7 ng·h/mL
Cc1ccc(NC(=O)c2ccc(CN3CCN(C)CC3)cc2)cc1Nc1nccc(-c2cncc(-c3oncc3C)c2)n1			healthy volunteers, plasma	oral, 25.0 mg once daily, day 1, 7-day dosing, mean		AUC(0-tau)	12700 ng·h/mL
O=C(O)c1ccccc1O		mitochondrial swelling	BALB/cByJ female mouse liver mitochondria	30 min, with: succinate + rotenone	baseline: CaCl2 maximal swelling	EC20	> 400 µM
CCc1cc2c(C(=O)c3cc(Br)c(O)c(Br)c3)cc(Br)c(O)c2o1		metabolic stability	Sprague-Dawley rat, liver microsomes	1 µM, pH 7.4		microsomal CLint	2.6 µL/min/mg
CC[C@H](C)[C@H](NC(=O)[C@H](Cc1ccccc1)NC(=O)[C@H](CCC(=O)O)NC(=O)[C@H](CCCCNC(=O)COCCOCCNC(=O)COCCOCCNC(=O)CC[C@H](NC(=O)CCCCCCCCCCCCCCCCC(=O)O)C(=O)O)NC(=O)[C@H](C)NC(=O)[C@H](C)NC(=O)[C@H](CCC(N)=O)NC(=O)CNC(=O)[C@H](CCC(=O)O)NC(=O)[C@H](CC(C)C)NC(=O)[C@H](Cc1ccc(O)cc1)NC(=O)[C@H](CO)NC(=O)[C@H](CO)NC(=O)[C@@H](NC(=O)[C@H](CC(=O)O)NC(=O)[C@H](CO)NC(=O)[C@@H](NC(=O)[C@H](Cc1ccccc1)NC(=O)[C@@H](NC(=O)CNC(=O)[C@H](CCC(=O)O)NC(=O)C(C)(C)NC(=O)[C@@H](N)Cc1cnc[nH]1)[C@@H](C)O)[C@@H](C)O)C(C)C)C(=O)N[C@@H](C)C(=O)N[C@@H](Cc1c[nH]c2ccccc12)C(=O)N[C@@H](CC(C)C)C(=O)N[C@H](C(=O)N[C@@H](CCCNC(=N)N)C(=O)NCC(=O)N[C@@H](CCCNC(=N)N)C(=O)NCC(=O)O)C(C)C			healthy human	oral		absorption rate constant	2.09 h⁻¹
COc1cc(/C=C/C(=O)CC(=O)/C=C/c2ccc(O)c(OC)c2)ccc1O		mitochondrial swelling	BALB/cByJ female mouse liver mitochondria	30 min, with: succinate + rotenone	baseline: CaCl2 maximal swelling	EC20	> 200 µM
CC(C)(C)c1nn(-c2cc(OCc3cn(Cc4ccc(Cl)cc4)nn3)c(Cl)cc2Cl)c(=O)o1	Toxoplasma gondii	intracellular parasite growth, luminescence	HFF, wild type, NanoLuc reporter	96 h		IC50	2.1 µM and < 2.5 µM
CN(C)CCCN1c2ccccc2CCc2ccccc21		mitochondrial swelling	BALB/cByJ female mouse liver mitochondria	30 min, with: succinate + rotenone	baseline: CaCl2 maximal swelling	EC20	274 µM
Oc1ccc(-c2nc(-c3ccc(Oc4ccc(C(F)(F)F)cc4)cc3)no2)cc1			ICR mice, female, plasma	oral, 50 mg/kg		elimination half-life	40 h
Cn1c(=O)c2c(ncn2C)n(C)c1=O		parallel tube model	human	from oral clearance		intrinsic hepatic clearance	16 L/h and 16.1 L/h
CC(C)[C@H](NC(=O)[C@@H]1CCCN1C(=O)[C@H](CCCNC(=N)N)NC(=O)[C@H](CS)NC(=O)[C@H](Cc1c[nH]c2ccccc12)NC(=O)[C@H](CCCNC(=N)N)NC(=O)[C@@H](Cc1ccccc1)NC(=O)[C@H](Cc1c[nH]cn1)NC(=O)[C@H](CCC(=O)O)NC(=O)[C@H](CS)NC(=O)[C@H](CS)NC(=O)[C@H](CCCCN)NC(=O)[C@@H]1CC(=O)N[C@@H](CCCNC(=N)N)C(=O)N[C@@H]([C@@H](C)O)C(=O)N[C@@H](CC(=O)O)C(=O)N[C@H](Cc2ccc(O)cc2)C(=O)N1)C(N)=O [technetium-99m labelled]			female C57 mouse, B16/F1 melanoma, kidneys	intravenous, dose not given, 2 h, with: NDP-MSH 10 µg co-injected		tissue uptake	96.2 ± 28.1 %ID/g
C[C@@H]1C[C@H]2[C@@H]3CCC4=CC(=O)C=C[C@]4(C)[C@@]3(F)[C@@H](O)C[C@]2(C)[C@@]1(O)C(=O)CO		mitochondrial swelling	BALB/cByJ female mouse liver mitochondria	30 min, with: succinate + rotenone	baseline: CaCl2 maximal swelling	EC20	> 200 µM
Cn1cnnc1SCC(=O)C12CC3CC(CC(C3)C1)C2			human liver microsomes	40 min, with: NADPH		intrinsic clearance	~9 µL/min/mg
COc1ccc2nc([S@@+]([O-])Cc3ncc(C)c(OC)c3C)[nH]c2c1			human healthy	40 mg, reproductive and breast disorders		adverse events	0%
O=C(/C=C/c1ccc(O)c(O)c1)O[C@@H]1C[C@](O)(C(=O)O)C[C@@H](O)[C@H]1O			human, fasted baseline, cerebrospinal fluid			median concentration	3.2 nM
CC(=O)CCc1ccc(O)cc1			male C57BL/6J mice, low-fat diet, brain	oral, 200 mg/kg		AUC(0-12 h)	19.4 ± 2.42 nmol·min/g
Cc1c(Cl)cccc1Nc1ccccc1C(=O)O		mitochondrial swelling	BALB/cByJ female mouse liver mitochondria	30 min, with: succinate + rotenone	baseline: CaCl2 maximal swelling	EC20	335 µM
COc1cccc(-c2ccc(NC(=O)C3=C(C(=O)O)CCC3)c(F)c2)c1			human, male, fasted, plasma	oral, 40 mg, single dose, geometric mean		AUC(0-24h)	94400 ng·h/mL
CCCC[C@H](NC(C)=O)C(=O)N[C@H]1CCC(=O)NC[C@@H](C(=O)N[C@@H](Cc2c[nH]c3ccccc23)C(N)=O)NC(=O)[C@H](CCCNC(=N)N)NC(=O)[C@@H](Cc2ccccc2)NC(=O)[C@H](Cc2c[nH]cn2)NC1=O			CD Sprague Dawley rat, male, plasma	subcutaneous, 1.0 mg/kg daily, day 14		Cmax	572 ng/mL
O=C(Cc1cccc(OC(F)(F)F)c1)Nc1ccc(CCCCc2nnc(NC(=O)Cc3ccccn3)s2)nn1			human patients, plasma	oral, 600 mg three times daily fasted, cycle 1 day 15 steady state		AUC(0-8h)	5160 ng·h/mL
CS(=O)(=O)n1cc2c(n1)CN([C@H]1CO[C@H](c3cc(F)ccc3F)[C@@H](N)C1)C2			healthy male human, plasma	oral, 5 mg, fasted single dose		AUC(0-last)	4.7 µM·h
CCOc1ccc2c(c1)C(C)=CC(C)(C)N2		LC-MS/MS	piglets, kidney	oral, 50 mg/kg feed, 42 days		residue concentration	4.9 ± 3.1 ng/g

Some of these lines once more:
SMILES	target or system	test	test system	conditions	scale	quantity	value
NCCCn1c2c(c3ccc(N)cc3c1=O)C(=O)c1ccccc1-2			Sprague-Dawley rat female, serum	oral, 40 mg/kg, 3 h		serum concentration	~830 ng/mL
O=C(NC[C@H]1CN(c2ccc(N3CCOCC3=O)cc2)C(=O)O1)c1ccc(Cl)s1			moderate renal impairment patients	oral, 10 mg, arithmetic mean		renal clearance	9.9 mL/min
CC1=C(COc2ccc(C#N)cc2)C(=O)c2ccccc2C1=O		cyclic voltammetry	DMSO	first wave, vs Ag/AgCl		cathodic peak potential	-0.62 V
COc1cc2c(cc1OC)CN(CCc1ccc(NC(=O)c3cc(OC)c(OC)cc3NC(=O)c3cnc4ccccc4c3)cc1)CC2			Wistar Unilever rat	intravenous, 7.5 mg/kg, 3 h		brain concentration	2570 ng/mL
CS(=O)(=O)Nc1ccc(C(=O)O[C@@H](Cc2c(Cl)c[n+]([O-])cc2Cl)c2ccc(OC(F)F)c(OCC3CC3)c2)cc1OCC1CC1			human, plasma	inhaled, 20 µg single dose, single-dose dry powder inhaler		tmax	4.8 min
